Published values gathered from unrelated publications.
Lines come from different studies, so protocols differ. ± gives the spread as reported.
CDA: Cytidine deaminase (CDA, Homo sapiens, UniProt P32320)
Chain of UniProt P32320 (whole entry, looked up): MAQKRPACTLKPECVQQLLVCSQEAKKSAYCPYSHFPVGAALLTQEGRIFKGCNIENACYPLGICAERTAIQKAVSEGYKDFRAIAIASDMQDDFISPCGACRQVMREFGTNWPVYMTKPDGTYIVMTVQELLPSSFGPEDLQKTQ
DNA polymerase III PolC-type: DNA polymerase III PolC-type (Bacillus subtilis, UniProt P13267)
Chain of UniProt P13267 (whole entry, looked up): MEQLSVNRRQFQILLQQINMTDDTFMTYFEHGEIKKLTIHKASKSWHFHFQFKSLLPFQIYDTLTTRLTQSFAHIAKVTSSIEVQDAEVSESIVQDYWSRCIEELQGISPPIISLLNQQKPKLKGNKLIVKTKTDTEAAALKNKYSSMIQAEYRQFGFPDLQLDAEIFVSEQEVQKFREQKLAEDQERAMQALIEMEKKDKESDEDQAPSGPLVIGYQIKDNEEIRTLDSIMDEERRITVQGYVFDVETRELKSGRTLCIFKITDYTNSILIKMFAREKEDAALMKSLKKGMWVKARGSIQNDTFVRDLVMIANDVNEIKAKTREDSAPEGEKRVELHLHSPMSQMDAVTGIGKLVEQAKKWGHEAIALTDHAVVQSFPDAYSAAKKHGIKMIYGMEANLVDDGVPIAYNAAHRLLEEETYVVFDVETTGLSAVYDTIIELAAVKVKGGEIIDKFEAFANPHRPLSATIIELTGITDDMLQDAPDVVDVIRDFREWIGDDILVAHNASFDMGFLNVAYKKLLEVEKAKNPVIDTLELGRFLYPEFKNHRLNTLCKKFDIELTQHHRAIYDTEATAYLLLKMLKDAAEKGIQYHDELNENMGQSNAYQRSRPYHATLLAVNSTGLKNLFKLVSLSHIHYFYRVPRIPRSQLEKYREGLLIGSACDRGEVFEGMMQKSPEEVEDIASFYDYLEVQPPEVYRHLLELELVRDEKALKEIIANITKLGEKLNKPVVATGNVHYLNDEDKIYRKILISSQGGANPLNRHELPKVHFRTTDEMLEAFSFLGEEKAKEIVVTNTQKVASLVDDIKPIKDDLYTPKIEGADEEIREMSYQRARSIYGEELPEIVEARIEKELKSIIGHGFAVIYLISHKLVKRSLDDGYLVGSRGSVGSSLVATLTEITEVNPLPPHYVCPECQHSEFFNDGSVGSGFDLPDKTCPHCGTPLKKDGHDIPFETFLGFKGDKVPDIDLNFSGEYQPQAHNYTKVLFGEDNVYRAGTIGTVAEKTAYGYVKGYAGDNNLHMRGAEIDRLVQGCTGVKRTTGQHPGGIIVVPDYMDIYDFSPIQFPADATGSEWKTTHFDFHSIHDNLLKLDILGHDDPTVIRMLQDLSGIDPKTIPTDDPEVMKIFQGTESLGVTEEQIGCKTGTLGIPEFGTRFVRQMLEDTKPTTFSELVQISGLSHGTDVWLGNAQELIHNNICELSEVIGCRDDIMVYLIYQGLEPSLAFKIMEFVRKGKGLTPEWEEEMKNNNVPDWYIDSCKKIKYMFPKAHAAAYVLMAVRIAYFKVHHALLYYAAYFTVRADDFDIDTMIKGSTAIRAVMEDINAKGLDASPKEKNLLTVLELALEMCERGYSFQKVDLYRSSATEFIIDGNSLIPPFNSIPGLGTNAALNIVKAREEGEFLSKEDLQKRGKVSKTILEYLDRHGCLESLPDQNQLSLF
ADRA2B: Alpha-2B adrenergic receptor (ADRA2B, Homo sapiens, UniProt P18089)
Chain of UniProt P18089 (whole entry, looked up): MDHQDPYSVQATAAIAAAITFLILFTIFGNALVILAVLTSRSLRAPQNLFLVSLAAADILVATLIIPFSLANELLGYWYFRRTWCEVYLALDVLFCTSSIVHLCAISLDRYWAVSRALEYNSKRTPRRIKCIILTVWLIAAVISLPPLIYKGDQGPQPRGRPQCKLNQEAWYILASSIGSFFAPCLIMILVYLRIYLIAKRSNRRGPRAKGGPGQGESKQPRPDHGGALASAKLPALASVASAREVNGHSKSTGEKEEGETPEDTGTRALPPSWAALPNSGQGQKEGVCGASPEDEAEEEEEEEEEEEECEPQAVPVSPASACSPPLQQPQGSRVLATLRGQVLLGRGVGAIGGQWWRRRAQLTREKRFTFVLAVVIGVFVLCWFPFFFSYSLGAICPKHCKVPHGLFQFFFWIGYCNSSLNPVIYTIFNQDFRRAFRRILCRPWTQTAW
Chain of UniProt P52790 (whole entry, unmodified, looked up): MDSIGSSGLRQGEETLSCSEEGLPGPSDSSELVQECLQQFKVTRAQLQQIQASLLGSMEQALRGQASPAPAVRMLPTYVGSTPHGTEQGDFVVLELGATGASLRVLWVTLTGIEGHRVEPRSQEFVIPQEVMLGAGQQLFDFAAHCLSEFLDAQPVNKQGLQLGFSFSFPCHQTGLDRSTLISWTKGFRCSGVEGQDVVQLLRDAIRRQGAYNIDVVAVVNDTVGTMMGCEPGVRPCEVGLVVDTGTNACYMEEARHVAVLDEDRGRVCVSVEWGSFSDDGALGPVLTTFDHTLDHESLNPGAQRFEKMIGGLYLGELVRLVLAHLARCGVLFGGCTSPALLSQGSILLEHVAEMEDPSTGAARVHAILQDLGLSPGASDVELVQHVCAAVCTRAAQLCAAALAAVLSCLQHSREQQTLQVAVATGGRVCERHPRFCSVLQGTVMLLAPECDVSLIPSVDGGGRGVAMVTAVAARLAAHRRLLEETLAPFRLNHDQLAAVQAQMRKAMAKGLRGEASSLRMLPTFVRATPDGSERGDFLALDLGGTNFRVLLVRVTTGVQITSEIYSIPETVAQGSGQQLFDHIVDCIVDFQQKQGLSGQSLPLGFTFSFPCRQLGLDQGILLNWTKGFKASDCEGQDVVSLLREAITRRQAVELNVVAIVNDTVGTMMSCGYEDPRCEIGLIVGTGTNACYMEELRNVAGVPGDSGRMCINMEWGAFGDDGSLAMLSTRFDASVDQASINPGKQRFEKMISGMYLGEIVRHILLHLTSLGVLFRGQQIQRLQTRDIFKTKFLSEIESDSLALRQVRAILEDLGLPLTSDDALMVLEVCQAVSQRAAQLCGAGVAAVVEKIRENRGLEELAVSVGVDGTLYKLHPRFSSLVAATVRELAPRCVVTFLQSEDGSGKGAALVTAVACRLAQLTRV
Chain of UniProt P30872 (whole entry, looked up): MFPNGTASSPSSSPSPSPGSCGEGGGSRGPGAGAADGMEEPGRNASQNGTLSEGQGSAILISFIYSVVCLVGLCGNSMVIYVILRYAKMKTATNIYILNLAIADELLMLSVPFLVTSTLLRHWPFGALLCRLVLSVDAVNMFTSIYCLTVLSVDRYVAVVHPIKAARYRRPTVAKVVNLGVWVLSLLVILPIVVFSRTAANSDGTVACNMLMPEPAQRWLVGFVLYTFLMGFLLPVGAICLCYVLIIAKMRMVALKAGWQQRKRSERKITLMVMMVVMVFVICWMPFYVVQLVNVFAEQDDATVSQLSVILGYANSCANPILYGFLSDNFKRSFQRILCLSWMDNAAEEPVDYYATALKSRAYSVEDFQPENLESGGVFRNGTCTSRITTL
Chain of UniProt P50613 (whole entry, looked up): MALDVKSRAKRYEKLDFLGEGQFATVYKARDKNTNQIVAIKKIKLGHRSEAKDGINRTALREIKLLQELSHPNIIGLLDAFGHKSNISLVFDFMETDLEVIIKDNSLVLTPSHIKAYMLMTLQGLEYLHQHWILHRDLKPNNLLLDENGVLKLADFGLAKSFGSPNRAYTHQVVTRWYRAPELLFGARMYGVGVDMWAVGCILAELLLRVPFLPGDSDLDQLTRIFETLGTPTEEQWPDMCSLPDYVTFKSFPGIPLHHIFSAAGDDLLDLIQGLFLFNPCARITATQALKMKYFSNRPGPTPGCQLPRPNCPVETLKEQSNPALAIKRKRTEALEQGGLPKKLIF

For `Nc1ncc([C@@H]2O[C@H](CO)[C@@H](O)[C@H]2O)c(=O)[nH]1`, the Ki was 28 µM (CDA; inhibitor; pH 7.5).
`O=c1[nH]c(NCc2ccc(Cl)c(Cl)c2)nc2ncn(CCCCN3CCOCC3)c12` gave a Ki of 0.14 µM (DNA polymerase III PolC-type; enzyme activity, inhibitor; truncated, dGTP omitted, 4% DMSO).
For `FC1CCN(c2ccc(-c3ccc4sc(Br)cc4n3)cn2)CC1`, the Ki was 0.0307 µM (Alpha-synuclein, aggregates (SNCA, Homo sapiens, UniProt P37840); Parkinson's disease brain homogenate; together with: 1 nM [3H]asyn-44).
For `CNC(=O)[C@@]12C[C@@H]1[C@@H](n1cnc3c(NC)nc(C#C[c-]4cccc4)nc31)[C@H](O)[C@@H]2O.[Fe+2].c1cc[cH-]c1`, the Ki was 0.571 µM (ADRA2B; radioligand binding).
`O=[N+]([O-])c1ncn(C2OC(CO)C(O)C2O)c1S` (stereo not drawn) gave a Ki of 256 µM (CDA; inhibitor; pH 7.5).
For `NC(=O)c1ccc[n+]([C@@H]2O[C@H](COP(=O)(O)OP(=O)(O)OC[C@H]3O[C@@H](n4cnc5c(N)ncnc54)[C@H](OP(=O)(O)O)[C@@H]3O)[C@@H](O)[C@H]2O)c1`, the Ki was 165 µM (chnB (Rhodococcus sp. HI-31, UniProt C0STX7)).
With `CCc1cc(Nc2cc(=O)[nH]c(=O)[nH]2)ccc1C` the Ki was 0.28 µM (DNA polymerase III PolC-type; inhibitor).
For `CNC(=O)[C@@]12C[C@@H]1[C@@H](n1cnc3c(NC)nc(C#Cc4cccs4)nc31)[C@H](O)[C@@H]2O`, the Ki was 1 to 10 µM (ADRA2B; radioligand binding (PDSP)).
For `COCc1cc(C(=O)Nc2cc([C@H]3CC[C@@H](OC(=O)NC(C)C)C3)[nH]n2)n(C)n1`, the Ki was 0.622 µM (Cyclin-dependent kinase 7 (CDK7, Homo sapiens, UniProt P50613); kinase activity, inhibitor, fluorescence).
With `O=c1[nH]c(NCc2ccc(Cl)c(Cl)c2)nc2ncn(CCN3CCOCC3)c12` the Ki was 0.34 µM (DNA polymerase III PolC-type; enzyme activity, inhibitor; truncated, dGTP omitted, 4% DMSO).
`O=c1n(CCCN2CCN(c3cccc(Cl)c3)CC2)nc2ccccn12` gave a Ki of > 10 µM (Somatostatin receptor type 1 (SSTR1, Homo sapiens, UniProt P30872)).
For `OC[C@H]1OC(O)[C@H](O)[C@@H](O)[C@@H]1O` (stereo partly drawn), the Ki was 12000 ± 1000 µM (Hexokinase-3 (HK3, Homo sapiens, UniProt P52790, A499V); substrate inhibition; mutant A499V, complete substrate inhibition model, together with: ATP 20 mM).
